{"data": "Assay results from different studies", "note": "Numbered parts are unrelated; each lists some results of a single study.", "chain of UniProt P23443 (whole entry, looked up)": "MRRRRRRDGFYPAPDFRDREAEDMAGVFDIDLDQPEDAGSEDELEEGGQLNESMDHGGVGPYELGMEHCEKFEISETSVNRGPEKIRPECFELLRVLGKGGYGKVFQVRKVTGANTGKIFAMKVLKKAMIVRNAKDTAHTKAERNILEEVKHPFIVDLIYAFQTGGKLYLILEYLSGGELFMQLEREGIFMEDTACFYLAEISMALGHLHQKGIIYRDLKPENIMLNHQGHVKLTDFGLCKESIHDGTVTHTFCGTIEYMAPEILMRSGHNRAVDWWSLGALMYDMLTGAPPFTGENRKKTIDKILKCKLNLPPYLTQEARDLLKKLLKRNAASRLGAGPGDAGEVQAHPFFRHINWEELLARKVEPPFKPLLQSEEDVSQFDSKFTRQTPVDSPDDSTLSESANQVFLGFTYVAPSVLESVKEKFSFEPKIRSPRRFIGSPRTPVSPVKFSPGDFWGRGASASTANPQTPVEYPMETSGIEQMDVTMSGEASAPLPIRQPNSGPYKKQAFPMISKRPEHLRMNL", "chain of UniProt P10721 (whole entry, unmodified, looked up)": "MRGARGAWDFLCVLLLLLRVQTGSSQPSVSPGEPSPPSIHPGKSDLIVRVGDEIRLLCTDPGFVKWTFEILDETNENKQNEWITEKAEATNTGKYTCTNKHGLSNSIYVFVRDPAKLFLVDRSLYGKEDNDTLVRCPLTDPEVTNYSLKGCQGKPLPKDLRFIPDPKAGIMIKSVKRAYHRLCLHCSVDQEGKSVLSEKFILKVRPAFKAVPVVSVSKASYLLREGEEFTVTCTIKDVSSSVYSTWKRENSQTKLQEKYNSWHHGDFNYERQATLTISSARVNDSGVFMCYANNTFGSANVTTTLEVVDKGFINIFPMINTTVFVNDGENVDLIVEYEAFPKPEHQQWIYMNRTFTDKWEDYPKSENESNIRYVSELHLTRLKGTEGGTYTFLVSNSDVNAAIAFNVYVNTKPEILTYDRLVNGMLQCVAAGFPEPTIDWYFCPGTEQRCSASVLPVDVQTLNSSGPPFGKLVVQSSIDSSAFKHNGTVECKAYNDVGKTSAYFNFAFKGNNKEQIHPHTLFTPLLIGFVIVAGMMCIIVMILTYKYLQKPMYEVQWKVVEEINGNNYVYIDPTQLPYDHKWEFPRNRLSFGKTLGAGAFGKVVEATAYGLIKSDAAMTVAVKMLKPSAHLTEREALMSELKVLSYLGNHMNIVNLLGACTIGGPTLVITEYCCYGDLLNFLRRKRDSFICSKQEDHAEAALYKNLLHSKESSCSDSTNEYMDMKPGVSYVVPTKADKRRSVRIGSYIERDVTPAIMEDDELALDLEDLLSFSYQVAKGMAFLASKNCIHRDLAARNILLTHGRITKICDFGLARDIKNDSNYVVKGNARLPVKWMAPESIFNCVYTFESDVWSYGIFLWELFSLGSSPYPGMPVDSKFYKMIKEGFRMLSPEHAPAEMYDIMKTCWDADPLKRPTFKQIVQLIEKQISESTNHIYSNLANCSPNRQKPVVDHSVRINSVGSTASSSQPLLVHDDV", "chain of UniProt P49137 (whole entry, looked up)": "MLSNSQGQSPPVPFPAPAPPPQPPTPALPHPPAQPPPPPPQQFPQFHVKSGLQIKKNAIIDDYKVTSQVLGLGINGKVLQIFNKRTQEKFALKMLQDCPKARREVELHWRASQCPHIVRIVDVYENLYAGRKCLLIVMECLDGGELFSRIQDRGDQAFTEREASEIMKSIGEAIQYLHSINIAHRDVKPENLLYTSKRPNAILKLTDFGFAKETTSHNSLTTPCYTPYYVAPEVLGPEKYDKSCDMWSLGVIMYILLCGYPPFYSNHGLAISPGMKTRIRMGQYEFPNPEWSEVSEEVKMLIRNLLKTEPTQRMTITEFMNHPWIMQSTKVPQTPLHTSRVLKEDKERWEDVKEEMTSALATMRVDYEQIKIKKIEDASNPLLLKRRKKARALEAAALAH", "chain of UniProt Q99558 (whole entry, looked up)": "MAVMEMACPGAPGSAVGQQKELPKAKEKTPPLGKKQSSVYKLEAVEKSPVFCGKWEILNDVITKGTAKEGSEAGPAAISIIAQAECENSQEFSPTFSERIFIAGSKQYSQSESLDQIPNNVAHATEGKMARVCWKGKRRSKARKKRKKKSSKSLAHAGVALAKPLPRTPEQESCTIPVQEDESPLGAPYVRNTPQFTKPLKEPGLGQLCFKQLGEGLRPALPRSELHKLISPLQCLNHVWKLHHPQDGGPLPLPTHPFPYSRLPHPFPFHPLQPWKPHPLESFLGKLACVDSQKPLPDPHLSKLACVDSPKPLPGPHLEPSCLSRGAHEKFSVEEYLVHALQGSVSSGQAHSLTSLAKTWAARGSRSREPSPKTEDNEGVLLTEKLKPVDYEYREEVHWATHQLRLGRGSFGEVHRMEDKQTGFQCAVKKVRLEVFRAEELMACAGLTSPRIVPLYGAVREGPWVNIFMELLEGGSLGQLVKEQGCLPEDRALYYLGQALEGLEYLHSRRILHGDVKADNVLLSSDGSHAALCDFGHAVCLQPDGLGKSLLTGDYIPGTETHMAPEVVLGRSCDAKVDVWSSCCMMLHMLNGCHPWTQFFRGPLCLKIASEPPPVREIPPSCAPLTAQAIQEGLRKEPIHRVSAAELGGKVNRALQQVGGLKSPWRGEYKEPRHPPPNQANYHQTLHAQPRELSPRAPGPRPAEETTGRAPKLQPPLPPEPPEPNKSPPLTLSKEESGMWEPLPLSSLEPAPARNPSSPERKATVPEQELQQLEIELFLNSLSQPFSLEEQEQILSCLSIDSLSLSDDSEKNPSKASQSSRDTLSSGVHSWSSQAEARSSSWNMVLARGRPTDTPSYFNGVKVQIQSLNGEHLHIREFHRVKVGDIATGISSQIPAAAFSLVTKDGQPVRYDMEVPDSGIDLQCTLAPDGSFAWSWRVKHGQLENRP", "chain of UniProt P49841 (whole entry, looked up)": "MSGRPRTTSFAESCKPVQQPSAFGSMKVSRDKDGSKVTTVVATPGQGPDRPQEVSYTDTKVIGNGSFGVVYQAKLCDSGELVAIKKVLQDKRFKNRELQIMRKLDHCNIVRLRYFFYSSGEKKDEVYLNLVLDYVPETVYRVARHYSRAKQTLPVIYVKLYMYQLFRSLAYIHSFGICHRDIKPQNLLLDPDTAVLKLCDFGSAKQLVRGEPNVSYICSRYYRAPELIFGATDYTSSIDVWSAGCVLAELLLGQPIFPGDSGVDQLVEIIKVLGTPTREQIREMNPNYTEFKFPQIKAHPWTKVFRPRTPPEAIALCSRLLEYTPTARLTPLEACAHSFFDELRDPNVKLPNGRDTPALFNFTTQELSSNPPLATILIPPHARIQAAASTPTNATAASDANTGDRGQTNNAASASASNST", "chain of UniProt P78368 (whole entry, looked up)": "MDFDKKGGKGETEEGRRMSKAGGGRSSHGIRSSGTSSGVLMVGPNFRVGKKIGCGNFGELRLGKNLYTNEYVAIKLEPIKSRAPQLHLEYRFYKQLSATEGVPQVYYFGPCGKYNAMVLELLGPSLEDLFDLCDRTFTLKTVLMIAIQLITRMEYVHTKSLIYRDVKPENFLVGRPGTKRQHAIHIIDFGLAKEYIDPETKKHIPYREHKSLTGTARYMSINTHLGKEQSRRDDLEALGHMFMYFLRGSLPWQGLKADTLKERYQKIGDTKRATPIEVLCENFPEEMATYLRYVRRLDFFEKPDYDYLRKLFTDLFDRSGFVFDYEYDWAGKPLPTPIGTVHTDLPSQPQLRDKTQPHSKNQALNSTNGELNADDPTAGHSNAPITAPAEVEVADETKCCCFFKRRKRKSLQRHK", "chain of UniProt P27361 (whole entry, looked up)": "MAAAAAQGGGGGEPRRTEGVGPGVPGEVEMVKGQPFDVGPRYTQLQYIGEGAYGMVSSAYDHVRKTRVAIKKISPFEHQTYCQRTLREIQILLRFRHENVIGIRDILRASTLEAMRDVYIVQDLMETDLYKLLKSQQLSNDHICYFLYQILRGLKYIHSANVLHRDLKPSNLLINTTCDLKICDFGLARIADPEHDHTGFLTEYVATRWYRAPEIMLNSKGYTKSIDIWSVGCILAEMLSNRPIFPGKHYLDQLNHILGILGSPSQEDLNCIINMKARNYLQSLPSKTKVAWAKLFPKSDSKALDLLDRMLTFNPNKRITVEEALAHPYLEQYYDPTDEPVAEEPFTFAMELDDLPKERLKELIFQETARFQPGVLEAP"}
{"data": "Block 1", "SMILES": "O=C1Nc2ccc(Br)cc2/C1=C/c1cc2c([nH]1)CCCC2", "effect on": "enzyme activity", "mode": "inhibitor", "tested at": "0.5 µM", "relative to": "control"}
{"target": "Serine/threonine-protein kinase ULK2 (ULK2, Homo sapiens, UniProt Q8IYT8)", "remaining activity [%]": 114}
{"target": "Serine/threonine-protein kinase TAO2 (TAOK2, Homo sapiens, UniProt Q9UL54)", "remaining activity [%]": 89.4}
{"target": "Ephrin type-A receptor 3 (EPHA3, Homo sapiens, UniProt P29320)", "remaining activity [%]": 94.6}
{"target": "MAP kinase-activated protein kinase 2 (MAPKAPK2, Homo sapiens, UniProt P49137)", "remaining activity [%]": 97.5}
{"target": "Tyrosine-protein kinase JAK3 (JAK3, Homo sapiens, UniProt P52333)", "remaining activity [%]": 89.3}
{"target": "Mitogen-activated protein kinase 3 (MAPK3, Homo sapiens, UniProt P27361)", "remaining activity [%]": 95}
{"target": "Serine/threonine-protein kinase ULK3 (ULK3, Homo sapiens, UniProt Q6PHR2)", "remaining activity [%]": 55.5}
{"target": "Tyrosine-protein kinase FRK (FRK, Homo sapiens, UniProt P42685)", "remaining activity [%]": 91}
{"target": "Casein kinase I isoform gamma-2 (CSNK1G2, Homo sapiens, UniProt P78368)", "remaining activity [%]": 96.8}
{"target": "Glycogen synthase kinase-3 beta (GSK3B, Homo sapiens, UniProt P49841)", "remaining activity [%]": 94.1}
{"target": "Wee1-like protein kinase (WEE1, Homo sapiens, UniProt P30291)", "remaining activity [%]": 95.9}
{"target": "Serine/threonine-protein kinase A-Raf (ARAF, Homo sapiens, UniProt P10398)", "remaining activity [%]": 106}
{"target": "Mitogen-activated protein kinase kinase kinase 14 (MAP3K14, Homo sapiens, UniProt Q99558)", "remaining activity [%]": 112}
{"target": "Serine/threonine-protein kinase Nek1 (NEK1, Homo sapiens, UniProt Q96PY6)", "remaining activity [%]": 94.6}
{"data": "Block 2", "Structure (SMILES)": "O=C(O)[C@H]1[C@H](Cn2nnc3ccccc3c2=O)CC[C@@H]1C(=O)c1ccc(OCCC2CCOCC2)cc1", "effect on": "cell-free assay", "technique": "competition with immobilised ligand", "tested at": "1 µM"}
{"target": "Mast/stem cell growth factor receptor Kit (KIT, Homo sapiens, UniProt P10721, V559D/V654A)", "remaining binding": "100%"}
{"target": "Epidermal growth factor receptor (EGFR, Homo sapiens, UniProt P00533, T790M)", "remaining binding": "77%"}
{"target": "Ribosomal protein S6 kinase beta-1 (RPS6KB1, Homo sapiens, UniProt P23443)", "remaining binding": "100%"}
{"data": "Block 3", "target": "Centromere-binding protein 1, full length, His-tagged (CBF1, Saccharomyces cerevisiae, UniProt P17106, residues 1-351)", "technique": "competition protein-binding microarray", "molecule type": "double-stranded DNA, one strand shown", "sample": "in vitro", "tested at": "2 µM", "setting": "whole 60-bp probe, lowest competitor level", "together with": "Pho4 competitor, 0.05 µM", "reading": "higher = stronger binding", "all sequences stand within": "… GTCTTGATTCGCTTGACGCTGCTG", "chain of UniProt P17106 (whole entry, looked up)": "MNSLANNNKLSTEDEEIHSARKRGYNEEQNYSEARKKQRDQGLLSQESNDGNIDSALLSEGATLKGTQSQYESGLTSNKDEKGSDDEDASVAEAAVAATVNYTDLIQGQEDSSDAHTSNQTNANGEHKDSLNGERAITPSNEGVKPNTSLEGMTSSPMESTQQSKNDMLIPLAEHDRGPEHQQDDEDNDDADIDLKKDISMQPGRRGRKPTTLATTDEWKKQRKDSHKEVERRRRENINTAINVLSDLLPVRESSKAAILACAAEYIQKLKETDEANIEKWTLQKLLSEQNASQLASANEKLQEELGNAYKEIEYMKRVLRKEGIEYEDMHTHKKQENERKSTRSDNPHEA"}
{"Strand": "CTTTCCCGATCTTGTCACTTTACTTTAGCACATTTG", "fluorescence intensity [a.u.]": 79.7}
{"Strand": "AAAGCGGTAATTTGTCACGTGACTTCACATATCTAT", "fluorescence intensity [a.u.]": 30000}
{"Strand": "AAGGCCACTGTTTATATCGTGCGATGGCTGGCAGGG", "fluorescence intensity [a.u.]": 62.3}
{"Strand": "TGGAAACCTGCCTGTCACATGATGTAAAATCTCCAT", "fluorescence intensity [a.u.]": 2230}
{"Strand": "TGCGCAACAACTTGCGTAGTGGGTGTATGTCTAGAA", "fluorescence intensity [a.u.]": 63.6}
{"Strand": "CGGGGTTAAGTTTGCCACGTGTTTTGCTTGCAGCAG", "fluorescence intensity [a.u.]": 1000}
{"Strand": "CTAAATGGGTAAAAACTCGTGTTTTAGGAAAAAAAA", "fluorescence intensity [a.u.]": 136}
{"Strand": "CATACCCAACCTTGTCACTGAACTTAAGATATTTGT", "fluorescence intensity [a.u.]": 77.9}
{"data": "Block 4", "target": "Eukaryotic initiation factor 4A-I (EIF4A1, Homo sapiens, UniProt P60842, residues 1-406, full length assumed)", "technique": "RNA Bind-n-Seq", "molecule type": "RNA", "sample": "in vitro", "tested at": "15 pmol", "setting": "4-mer, random 30-nt RNA, single round", "together with": "3 µM DMDA-PatA, 2 mM AMP-PNP", "relative to": "input library", "reading": "higher = stronger binding", "chain of UniProt P60842 (whole entry, looked up)": "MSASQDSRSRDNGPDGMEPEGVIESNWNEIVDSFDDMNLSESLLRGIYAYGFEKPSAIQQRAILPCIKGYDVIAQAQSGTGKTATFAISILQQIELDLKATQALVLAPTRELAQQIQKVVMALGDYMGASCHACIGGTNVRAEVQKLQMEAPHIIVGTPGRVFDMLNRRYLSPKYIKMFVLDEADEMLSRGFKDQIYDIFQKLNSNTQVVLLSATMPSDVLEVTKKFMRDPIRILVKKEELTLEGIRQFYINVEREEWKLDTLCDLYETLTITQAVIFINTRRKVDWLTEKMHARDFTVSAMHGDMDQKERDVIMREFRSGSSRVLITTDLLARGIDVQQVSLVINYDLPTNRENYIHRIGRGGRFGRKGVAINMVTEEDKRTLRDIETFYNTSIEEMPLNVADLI"}
{"Strand": "UCGA", "4-mer enrichment": "1.29 fold"}
{"Strand": "CAGG", "4-mer enrichment": "0.635 fold"}
{"Strand": "GCCU", "4-mer enrichment": "0.62 fold"}
{"Strand": "AUUG", "4-mer enrichment": "1.31 fold"}
{"Strand": "GGGG", "4-mer enrichment": "1.33 fold"}
{"Strand": "AACA", "4-mer enrichment": "0.47 fold"}
{"Strand": "ACAG", "4-mer enrichment": "0.729 fold"}
{"Strand": "ACUC", "4-mer enrichment": "0.578 fold"}
